# Results collected from several papers.
# A part holds a random share of what one study measured. “And” joins repeats or separate records; there may be more than shown. Positions count from the first letter of the parent shown.

# Sample 1
# Molecule: meglumine antimoniate
# Organism: Leishmania infantum chagasi
# Method: qPCR
# Species: golden hamster chronic infection
# Route: intraperitoneal
# Dose: 50 mg/kg/day
# Time: 10 days
assay,system,threshold cycle
measured: IFN-γ mRNA,spleen,33.8 cycles and 32.8 cycles and 29.9 cycles and 33.4 cycles and 28.3 cycles and 36 cycles
measured: IL4 mRNA,spleen,28.5 cycles and 33.1 cycles and 33 cycles and 30.8 cycles and 32.6 cycles and 31.3 cycles
measured: IL-17 mRNA,spleen,33.4 cycles and 30.5 cycles and 34.6 cycles and 35.9 cycles and 31.6 cycles
measured: IL10 mRNA,spleen,26.7 cycles and 29.9 cycles and 30.3 cycles and 29.1 cycles and 30.6 cycles and 27 cycles
measured: IL-17 mRNA,liver,35.9 cycles and 34 cycles and 33.3 cycles and 33.4 cycles and 35.4 cycles

# Sample 2
# Target: vanadate, free oxyanion
# Method: microfluidic competitive inhibition
# Medium: in vitro, cell-free expressed
# Concentration: not given
# Notes: derived from inhibition constants, unchanged parent 676 nM
# Reading: lower = stronger binding
# Parent: PafA, mature enzyme, eGFP fusion (Elizabethkingia meningoseptica, UniProt Q9KJX5); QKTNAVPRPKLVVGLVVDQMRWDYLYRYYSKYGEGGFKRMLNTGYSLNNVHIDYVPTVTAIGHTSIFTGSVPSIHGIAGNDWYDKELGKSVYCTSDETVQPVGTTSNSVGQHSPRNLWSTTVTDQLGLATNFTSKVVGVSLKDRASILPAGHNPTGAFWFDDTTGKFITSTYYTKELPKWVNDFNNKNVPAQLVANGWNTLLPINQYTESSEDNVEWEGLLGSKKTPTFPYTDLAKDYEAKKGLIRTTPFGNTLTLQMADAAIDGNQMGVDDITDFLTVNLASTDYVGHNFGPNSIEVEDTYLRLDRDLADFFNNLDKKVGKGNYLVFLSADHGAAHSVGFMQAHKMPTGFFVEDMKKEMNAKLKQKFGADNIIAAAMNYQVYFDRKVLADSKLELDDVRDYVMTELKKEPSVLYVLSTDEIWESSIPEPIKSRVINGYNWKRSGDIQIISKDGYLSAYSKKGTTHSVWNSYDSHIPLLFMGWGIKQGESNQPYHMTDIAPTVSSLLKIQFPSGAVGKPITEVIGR
Variant,oxyanion analog dissociation constant
N186G,576 nM
R443G,2.73 µM
L389V,701 nM
L117V,656 nM
W180G,2.49 µM
F511V,882 nM
I245G,611 nM
T163G,418 nM

# Sample 3
# Target: UDP-N-acetylglucosamine--peptide N-acetylglucosaminyltransferase 110 kDa subunit (OGT, Homo sapiens, UniProt O15294)
# UniProt O15294, sequence (whole entry, looked up): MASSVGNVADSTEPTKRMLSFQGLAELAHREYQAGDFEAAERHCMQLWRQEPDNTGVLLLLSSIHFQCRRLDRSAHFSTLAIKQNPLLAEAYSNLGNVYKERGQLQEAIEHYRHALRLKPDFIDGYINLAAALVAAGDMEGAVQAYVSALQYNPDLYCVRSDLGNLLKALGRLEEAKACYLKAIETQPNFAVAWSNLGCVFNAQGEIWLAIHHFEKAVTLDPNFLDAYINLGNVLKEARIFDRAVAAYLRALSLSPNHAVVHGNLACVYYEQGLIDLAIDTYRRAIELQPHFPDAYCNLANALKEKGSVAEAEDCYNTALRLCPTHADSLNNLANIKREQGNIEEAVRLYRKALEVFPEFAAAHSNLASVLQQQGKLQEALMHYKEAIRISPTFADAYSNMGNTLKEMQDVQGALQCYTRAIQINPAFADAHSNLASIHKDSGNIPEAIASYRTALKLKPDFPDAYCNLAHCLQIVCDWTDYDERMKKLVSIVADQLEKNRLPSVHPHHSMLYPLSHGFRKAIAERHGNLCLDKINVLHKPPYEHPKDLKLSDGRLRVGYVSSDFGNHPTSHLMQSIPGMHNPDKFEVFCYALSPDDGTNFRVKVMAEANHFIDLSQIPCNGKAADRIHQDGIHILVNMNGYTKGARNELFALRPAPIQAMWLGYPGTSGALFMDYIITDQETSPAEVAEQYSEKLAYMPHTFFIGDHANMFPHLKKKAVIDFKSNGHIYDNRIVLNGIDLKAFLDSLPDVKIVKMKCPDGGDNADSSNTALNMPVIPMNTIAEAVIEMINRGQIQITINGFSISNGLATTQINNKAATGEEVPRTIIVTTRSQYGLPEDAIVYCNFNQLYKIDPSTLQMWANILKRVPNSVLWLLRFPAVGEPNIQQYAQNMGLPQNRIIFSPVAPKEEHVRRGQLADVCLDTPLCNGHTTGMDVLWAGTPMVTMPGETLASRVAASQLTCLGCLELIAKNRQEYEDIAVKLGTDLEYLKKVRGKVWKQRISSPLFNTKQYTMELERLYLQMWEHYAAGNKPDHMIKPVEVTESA
# Read-out: binding
# Method: phage display NGS
# Molecule type: peptide
# Concentration: concentration not given
# Reference: input library
Molecule,enrichment fold change
HRHDYDYQHHLPRYF,4.18
HVRWHHSDAPYWTDI,5.46
HKTWHPHHMVQTPN,4.49
HTYDLTGPSHWFTRI,2.26
TLFPPVYQIFAIGME,3.77
HLQTVHSHSYYLRS,2.31
HLHQDHISHPFEHEA,5.72
YTDNEEIIFHHHQVA,3.7

# Single results of other studies
Compound,cell line,assay,setting,how to read,endpoint,result
CC(=O)N(C)c1cccc(-c2ccnc3c(C(=O)c4cccs4)cnn23)c1,mouse MPNST tumor cells,"high-content nuclear imaging, measured: cell number","10 µM, 12 h, mean of 2 replicates","reference: plate mean, higher = more cells",nuclei count,0.208 z-score
